Experimental data pooled from the literature.
Every numbered part comes from another study and shows a few of its results, in no order. Values joined by “and” are separate records of one study, mostly repeats; a detail may differ. Substitutions count along the parent as printed.

Study 1
Target: Serine/threonine-protein kinase PLK3 (PLK3, Homo sapiens, UniProt Q9H4B4)
Chain of UniProt Q9H4B4 (whole entry, looked up): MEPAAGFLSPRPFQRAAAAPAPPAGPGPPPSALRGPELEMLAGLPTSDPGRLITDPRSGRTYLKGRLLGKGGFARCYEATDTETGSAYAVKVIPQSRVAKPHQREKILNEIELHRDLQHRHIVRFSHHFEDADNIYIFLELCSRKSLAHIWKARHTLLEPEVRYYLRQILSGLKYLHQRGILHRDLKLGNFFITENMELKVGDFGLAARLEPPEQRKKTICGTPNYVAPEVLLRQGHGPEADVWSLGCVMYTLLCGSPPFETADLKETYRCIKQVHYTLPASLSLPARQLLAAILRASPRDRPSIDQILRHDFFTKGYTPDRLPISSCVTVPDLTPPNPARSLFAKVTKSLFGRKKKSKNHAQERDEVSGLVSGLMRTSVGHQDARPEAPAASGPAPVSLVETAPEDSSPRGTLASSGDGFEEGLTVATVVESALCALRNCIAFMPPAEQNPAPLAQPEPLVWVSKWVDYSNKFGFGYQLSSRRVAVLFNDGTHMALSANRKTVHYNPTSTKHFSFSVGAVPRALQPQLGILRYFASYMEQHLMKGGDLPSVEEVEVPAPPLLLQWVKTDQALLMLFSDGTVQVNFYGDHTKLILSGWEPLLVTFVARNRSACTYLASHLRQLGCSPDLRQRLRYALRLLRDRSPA
Observed: enzyme activity
Action: inhibitor
Tested at: 0.5 µM
Baseline: control
Quantity: remaining activity
SMILES = N#CC(C#N)=C(N)/C(C#N)=C/c1ccc(O)cc1; value = 63.6%
SMILES = Cc1ccc(Nc2nccc(N(C)c3ccc4c(C)n(C)nc4c3)n2)cc1S(N)(=O)=O; value = 101%
SMILES = Cc1nc(-c2ccccc2)c(-c2ccncc2)o1; value = 95.4%
SMILES = COc1cc2ncnc(Nc3ccc(Oc4ccccc4)cc3)c2cc1OC; value = 97.1%
SMILES = O=C(CCCc1ccc(-c2ccccc2F)cc1)Nc1ccc(O)cc1; value = 95%
SMILES = CCOC(=O)c1c(C)[nH]c(/C=C2\C(=O)Nc3ccccc32)c1C; value = 97.5%
SMILES = Cc1ccc(NC(=O)c2ccc(CN3CCN(C)CC3)cc2)cc1Nc1nc(-c2cccnc2)cs1; value = 101%
SMILES = NCCNc1ncc(C(N)=O)c(Nc2cccc(C(F)(F)F)c2)n1; value = 98.3%
SMILES = OCC(O)CCON=C1C(c2c(O)[nH]c3ccccc23)=Nc2ccccc21 (centres unmarked); value = 102%
SMILES = C#Cc1cccc(Nc2ncnc3cc(OCCOC)c(OCCOC)cc23)c1; value = 102%
SMILES = O=S(=O)(c1cccc2cnccc12)N1CCCNCC1; value = 102%
SMILES = COc1cc2ncnc(Nc3ccc(F)c(Cl)c3)c2cc1OCCCN1CCOCC1; value = 103%
SMILES = Nc1ncnc2n[nH]c(Nc3ccc(F)cc3)c12; value = 98%

Study 2
Target: ATP-dependent RNA helicase DDX3X, helicase core (DDX3X, Homo sapiens, UniProt O00571, residues 132-607)
Chain of UniProt O00571 (132-607, looked up): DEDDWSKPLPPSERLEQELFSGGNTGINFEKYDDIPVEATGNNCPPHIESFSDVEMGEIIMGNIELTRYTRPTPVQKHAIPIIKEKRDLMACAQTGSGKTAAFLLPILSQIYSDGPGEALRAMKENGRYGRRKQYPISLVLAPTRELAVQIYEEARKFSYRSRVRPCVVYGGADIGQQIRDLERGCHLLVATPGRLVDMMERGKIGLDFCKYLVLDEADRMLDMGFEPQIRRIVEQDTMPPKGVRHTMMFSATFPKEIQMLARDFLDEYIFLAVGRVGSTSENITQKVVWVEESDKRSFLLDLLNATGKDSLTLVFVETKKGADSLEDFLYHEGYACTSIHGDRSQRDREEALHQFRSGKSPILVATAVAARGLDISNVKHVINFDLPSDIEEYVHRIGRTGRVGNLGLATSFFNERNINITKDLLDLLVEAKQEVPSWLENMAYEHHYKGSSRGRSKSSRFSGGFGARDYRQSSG
Method: RNA Bind-n-Seq
Molecule type: RNA
Medium: in vitro
Tested at: not given
Setting: 4-mer, random 30-nt RNA, single round
With: RocA, ADP, phosphate
Baseline: input library
Direction: higher = stronger binding
Quantity: 4-mer enrichment
Sequence = CGAC; value = 0.647 fold
Sequence = GAGC; value = 1.61 fold
Sequence = CGCC; value = 0.742 fold
Sequence = GGGU; value = 1.2 fold
Sequence = GAUG; value = 1.09 fold
Sequence = AUCC; value = 0.704 fold
Sequence = GACC; value = 0.718 fold
Sequence = CCCA; value = 0.876 fold

Study 3
Target: FOSL1, bZIP domain (human)
Method: DHFR protein complementation
Medium: yeast
Setting: single substitutions, most at no-binding floor
Baseline: wild-type JUN-FOS pair
Direction: higher = stronger binding
Quantity: binding fitness
Starting sequence: JUN, bZIP domain (human); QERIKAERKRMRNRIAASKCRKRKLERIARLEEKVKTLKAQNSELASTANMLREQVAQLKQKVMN; partner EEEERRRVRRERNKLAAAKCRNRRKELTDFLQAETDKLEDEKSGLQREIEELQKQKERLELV
Variant = K36Y; value = -0.662 natural log
Variant = L45A; value = -1.2 natural log
Variant = I28L; value = -0.46 natural log
Variant = L59V; value = -1.28 natural log
Variant = L38W; value = -1.33 natural log
Variant = L31S; value = -1.21 natural log
Variant = Q41C; value = -1.45 natural log
Variant = R53V; value = -1.26 natural log

Study 4
Cell line: normal-adjacent epithelium patient-derived organoids sample E
Method: CellTiter-Glo
Tested at: 1 µM
Baseline: DMSO
Quantity: viability
SMILES = O=C(Nc1cccnn1)N1CC(CC=Cc2cncc(Oc3ccc(C(F)(F)F)cn3)n2)C1; value = 108% and 103%
SMILES = CN1CCN(Cc2cc(NC(=O)c3ccc4c(c3)CN(c3ccccc3)CC4)cc(C(F)(F)F)c2)CC1; value = 117% and 71.3%
SMILES = Cc1cc2c(-c3ccco3)cnc(N[C@H]3CCN(C)C[C@@H]3C(=O)NC3CCCCC3)c2[nH]c1=O; value = 108%
SMILES = Cl.Cl.NC1(c2ccc(-c3nc4ccn5c(=O)[nH]nc5c4cc3-c3ccccc3)cc2)CCC1; value = 96.9% and 93.4%
SMILES = COCc1nc2cnc3cc(-c4c(C)noc4C)c(OC[C@H]4CCNC4)cc3c2n1[C@H](C)c1ccccc1; value = 80.3%
SMILES = CN(C)C(=O)Cn1cc(-c2ccc(-c3nnc4ccccn34)cc2)cn1; value = 99.7% and 86.6%

Excerpt of the above (study 3):
Variant = I28L; value = -0.46 natural log
Variant = L59V; value = -1.28 natural log
Variant = L38W; value = -1.33 natural log
